Measured values pooled from the literature.
Lines come from different studies, so protocols differ. Several values in a cell are separate wells, animals, samples, runs or records. ± marks the error that the study gave.

With N#C[C@@H]1CCCN1C(=O)CNC(=O)c1ccnc2ccc(OCCCN3CCN(C(=O)CCc4ccc5c(c4)CN4CCN6CC(=O)[O][68Ga-]([O]C(=O)C4)([O]5)[O]c4ccc(CCC(=O)N5CCN(CCCOc7ccc8nccc(C(=O)NCC(=O)N9CCC[C@H]9C#N)c8c7)CC5)cc4C6)CC3)cc12 the tissue uptake was 1.84 ± 0.48 %ID/g (BALB/c nude mice, U-87 MG xenograft, lung; 2 h).
For COc1ccc2c(c1)C(C)(C)C(/C=C/C1=C(Oc3ccc(C(=O)NCCCCOc4cc(CN(Cc5ccccn5)Cc5ccccn5)cc(CN(Cc5ccccn5)Cc5ccccn5)c4)cc3)C(=C/C=C3/N(CCCCS(=O)(=O)[O-])c4ccc(OC)cc4C3(C)C)CCC1)=[N+]2CCCCS(=O)(=O)[O-].O=[N+]([O-])[O-].O=[N+]([O-])[O-].[99Tc+].[C-]#[O+].[C-]#[O+].[C-]#[O+].[Zn+2], the tissue uptake was 55.3 %ID/g and 127 %ID/g and 19.6 %ID/g and 49.9 %ID/g (BALB/c mice, S. aureus myositis, gall bladder; 12 h post-injection).
For CC(C)C[C@H](NC(=O)[C@@H](CCCCNC(=O)[C@@H](Cc1ccccc1)NC(=O)CCCCCCCNC(=O)CN1CCN(CC(=O)O)CCN(CC(=O)O)CCN(CC(=O)O)CC1)NC(=O)[C@H](Cc1ccc(O)cc1)NC(=O)[C@H](CO)NC(=O)[C@H](Cc1c[nH]c2ccccc12)NC(=O)[C@H](Cc1c[nH]cn1)NC(=O)[C@@H]1CCC(=O)N1)C(=O)N[C@@H](CCCNC(=N)N)C(=O)N1CCC[C@H]1C(=O)NCC(N)=O [indium-111 labelled], the tissue uptake was 0.12 ± 0.08 %ID/g (biodistribution; male athymic nude mice, DU-145 prostate cancer xenograft, lung; intravenous, 0.037 MBq, 4 h post-injection).
COc1ccc(Nc2nc(Nc3ccc(OCCOCCOCC[18F])cc3)ncc2Br)cc1 has a tissue uptake of 2.5 ± 0.12 %ID/g (ICR mice, S180 tumour-bearing, brain; intravenous, 370 kBq, 60 min).
With O=C(NCC1OC2CCC=CCCC2O1)c1ccc([18F])nc1 (stereo not drawn) the tissue uptake was 3 ± 0.5 %ID/g (healthy female BALB/c nude mice, large intestine; intravenous, 7.4 MBq per mouse, 5 min).
With O=C([O-])CN1CCN(CC(=O)[O-])CCN(CC(=O)NC[C@H]2CC[C@H](C(=O)N[C@H](Cc3cnc4ccccc4c3)C(=O)NCCCC[C@H](NC(=O)N[C@@H](CCC(=O)O)C(=O)O)C(=O)O)CC2)CCN(CC(=O)[O-])CC1.[64Cu+2] the tissue uptake was 1.55 %ID/g (ex vivo gamma counting; 22Rv1 tumour-bearing mice, muscle; intravenous, 0.74 MBq, 24 h post-injection).
With Cc1nc(N)nc2c1C(=O)N[C@@H](c1ccc(F)cc1-c1cccc(OCC[18F])n1)C2 the tissue uptake was 1 ± 0.02 %ID (ex vivo biodistribution; C57BL/6 mice, pancreas; intravenous, 1 MBq, 30 min).
CCCC[C@H](NC(=O)CCCCCCCNC(=O)CN1CCN(CC(=O)O)CCN(CC(=O)O)CC1)C(=O)N[C@H]1CC(=O)NCCCC[C@@H](C(N)=O)NC(=O)[C@H](Cc2c[nH]c3ccccc23)NC(=O)[C@H](CCCNC(=N)N)NC(=O)[C@@H](Cc2ccccc2)NC(=O)[C@H](Cc2c[nH]cn2)NC1=O [fluorine-18 labelled] gave a tissue uptake of 0.3 ± 0.09 %ID/g (C57 mice, B16/F10 melanoma, skin; intravenous, 1 h, with: NDP-MSH 10 µg).
O=C(NCC1OC2CCC=CCCC2O1)c1ccc(COCCOCCOCC[18F])cc1 (stereo not drawn) gave a tissue uptake of 3.2 ± 0.8 %ID/g (healthy female BALB/c nude mice, bladder; intravenous, 7.4 MBq per mouse, 60 min).
CCCC[C@H](NC(=O)CNC(=O)CNC(=O)[C@H](CCCCNC(=O)[C@H](CC(N)=O)NC(=O)C(C)c1ccc(CC(C)C)cc1)NC(=O)CN1CCN(CC(=O)O)CCN(CC(=O)O)CCN(CC(=O)O)CC1)C(=O)N[C@H]1CC(=O)NCCCC[C@@H](C(N)=O)NC(=O)[C@H](Cc2c[nH]c3ccccc23)NC(=O)[C@H](CCCNC(=N)N)NC(=O)[C@@H](Cc2ccccc2)NC(=O)[C@H](Cc2c[nH]cn2)NC1=O (stereo partly drawn) [lutetium-177 labelled] has a tissue uptake of 29.9 ± 2.56 %ID/g (C57 mice, tumour-bearing, kidneys; 2 h).
The tissue uptake of CC(=O)N([O-])CCCCCNC(=O)CCC(=O)N([O-])CCCCCNC(=O)CCC(=O)N([O-])CCCCCN.[89Zr+4] is reported as 0.7 ± 0.82 %ID/g (gamma counting; healthy Balb/c mice, adrenal; intravenous, 4 h, 89Zr-labelled complex).
The tissue uptake of CC(C)c1noc(C2CCN(c3ncnc(Nc4ccc(OCC[18F])cc4)c3[N+](=O)[O-])CC2)n1 is reported as 3.37 ± 1.02 %ID/g (ex vivo biodistribution after PET; C57BL/J male mice, liver; 60 min).
For O=C(O)CCCOc1ccc([18F])cc1-c1cc(-c2ccccc2C(F)(F)F)n(-c2ccccc2)n1, the tissue uptake was 4.38 ± 0.59 %ID/g (mice, large intestine; intravenous, 360 min).
COc1ccc(Nc2nc(Nc3ccc(OCCOCC[18F])cc3)ncc2Br)cc1 gave a tissue uptake of 2.34 ± 0.14 %ID/g (ICR mice, S180 tumour-bearing, spleen; intravenous, 370 kBq, 15 min).
N[C@H](CSC(F)(F)[18F])C(=O)O has a tissue uptake of 1.32 ± 0.17 %ID/g (Kunming mice, turpentine inflammation, normal muscle; intravenous, 0.74 MBq, 60 min).
For CN(O)C(=O)CCC(=O)NCCCN(CCCCN(CCCNC(=O)CCC(=O)N(C)O)C(=O)CCC(=O)N(C)O)C(=O)CCC(=O)N(C)O.[89Zr], the tissue uptake was 0.03 %ID/g (gamma counting; healthy Balb/c mice, adrenal; intravenous, 24 h, 89Zr-labelled complex).
Cc1cc(C)n(CCN(CCN)CCCCCCNC(=O)[C@@H](N)Cc2c[nH]cn2)n1.[99Tc+].[C-]#[O+].[C-]#[O+].[C-]#[O+] gave a tissue uptake of 2.12 ± 0.07 %ID/g (BALB/c nude mice A549 xenograft, tumor; intravenous, 15 min).
For C[N+](C)(CCOCCOCCOCCOCCOCCOCCOCCNC(=S)Nc1ccc(CC2CN(CC(=O)[O-])CCN(CC(=O)[O-])CCN2CC(=O)[O-])cc1)C[c-]1cccc1.[64Cu+2].[Fe+2].c1cc[cH-]c1 (stereo not drawn), the tissue uptake was 0.1 ± 0.1 %ID/g (refers to: large intestine; nude mice, BxPC-3 tumour; 24 h post injection, pretargeting, 72 h lag).
With CC[C@H](C)[C@H](NC(=O)C[C@H](NC(=O)CN1CCN2CCN(CC1)CC(=O)[O][Al]([18F])[O]C(=O)C2)C(=O)O)C(=O)N[C@H]1CCc2cccc3c2N(C1=O)[C@H](C(=O)NCc1cn[nH]n1)C3 the tissue uptake was 4.3 ± 0.98 %ID/g (C57BL/6J mice, MC-38 tumour, anti-PD-1 treated, kidney; 0.5 h).
CCCC[C@H](NC(=O)CNC(=O)CNC(=O)[C@H](CCCCNC(=O)[C@H](CC(=O)O)NC(=O)C(C)c1ccc(CC(C)C)cc1)NC(=O)CN1CCN(CC(=O)O)CCN(CC(=O)O)CCN(CC(=O)O)CC1)C(=O)N[C@H]1CC(=O)NCCCC[C@@H](C(N)=O)NC(=O)[C@H](Cc2c[nH]c3ccccc23)NC(=O)[C@H](CCCNC(=N)N)NC(=O)[C@@H](Cc2ccccc2)NC(=O)[C@H](Cc2c[nH]cn2)NC1=O (stereo partly drawn) [lutetium-177 labelled] gave a tissue uptake of 0.05 ± 0.03 %ID/g (C57 mice, tumour-bearing, brain; intravenous, 0.037 MBq, 24 h).
For N#C[C@@H]1CCCN1C(=O)CNC(=O)c1ccnc2ccc(OCCCN3CCN(C(=O)CCc4ccc(O)c(CN5CCN6CC(=O)[O][Al-]([18F])([O]C(=O)C5)[O]c5ccc(CCC(=O)N7CCN(CCCOc8ccc9nccc(C(=O)NCC(=O)N%10CCC[C@H]%10C#N)c9c8)CC7)cc5C6)c4)CC3)cc12 (stereo partly drawn), the tissue uptake was 0.94 ± 0.17 %ID/g (BALB/c nude mice, U-87 MG xenograft, spleen; 2 h).

Some of these lines once more:
With N#C[C@@H]1CCCN1C(=O)CNC(=O)c1ccnc2ccc(OCCCN3CCN(C(=O)CCc4ccc5c(c4)CN4CCN6CC(=O)[O][68Ga-]([O]C(=O)C4)([O]5)[O]c4ccc(CCC(=O)N5CCN(CCCOc7ccc8nccc(C(=O)NCC(=O)N9CCC[C@H]9C#N)c8c7)CC5)cc4C6)CC3)cc12 the tissue uptake was 1.84 ± 0.48 %ID/g (BALB/c nude mice, U-87 MG xenograft, lung; 2 h).
N[C@H](CSC(F)(F)[18F])C(=O)O has a tissue uptake of 1.32 ± 0.17 %ID/g (Kunming mice, turpentine inflammation, normal muscle; intravenous, 0.74 MBq, 60 min).
With Cc1nc(N)nc2c1C(=O)N[C@@H](c1ccc(F)cc1-c1cccc(OCC[18F])n1)C2 the tissue uptake was 1 ± 0.02 %ID (ex vivo biodistribution; C57BL/6 mice, pancreas; intravenous, 1 MBq, 30 min).
